Assay results collected from several papers.
Lines come from different studies, so protocols differ. Numbers after ± are the reported error.
Target: Broad substrate specificity ATP-binding cassette transporter ABCG2 (ABCG2, Homo sapiens, UniProt Q9UNQ0)
Residues used in one study (Q9UNQ0 1-655): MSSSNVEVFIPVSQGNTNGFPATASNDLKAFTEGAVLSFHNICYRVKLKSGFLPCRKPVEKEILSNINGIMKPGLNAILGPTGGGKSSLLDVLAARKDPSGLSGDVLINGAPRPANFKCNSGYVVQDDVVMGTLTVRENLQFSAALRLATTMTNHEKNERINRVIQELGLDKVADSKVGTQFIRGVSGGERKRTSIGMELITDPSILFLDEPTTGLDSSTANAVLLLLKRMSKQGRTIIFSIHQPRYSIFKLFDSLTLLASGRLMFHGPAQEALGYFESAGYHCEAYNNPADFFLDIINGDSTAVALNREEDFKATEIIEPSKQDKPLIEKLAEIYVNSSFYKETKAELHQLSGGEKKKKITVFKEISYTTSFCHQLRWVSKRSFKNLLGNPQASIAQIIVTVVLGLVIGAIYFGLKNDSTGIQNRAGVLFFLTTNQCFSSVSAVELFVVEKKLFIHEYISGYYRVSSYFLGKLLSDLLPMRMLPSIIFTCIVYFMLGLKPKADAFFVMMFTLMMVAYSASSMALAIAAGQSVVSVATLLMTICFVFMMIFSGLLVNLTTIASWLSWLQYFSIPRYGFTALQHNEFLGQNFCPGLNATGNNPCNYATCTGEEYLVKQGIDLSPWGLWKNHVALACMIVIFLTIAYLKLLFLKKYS

O=C(O)[C@H]1O[C@@H](Oc2cccc3oc(-c4ccccc4)cc(=O)c23)[C@H](O)[C@@H](O)[C@@H]1O — Km (glucuronide efflux, substrate; HeLa cells expressing UGT1A9): > 17 µM
C=CC(=O)N1CCC([C@@H]2CCNc3c(C(N)=O)c(-c4ccc(Oc5ccccc5)cc4)nn32)CC1 — remaining activity (transport, item: Lucifer Yellow uptake; membrane vesicles; 0.2 µM; reference: vehicle): 108 ± 4.5%
CCOc1cc2ncc(C#N)c(Nc3ccc(OCc4ccccn4)c(Cl)c3)c2cc1NC(=O)/C=C/CN(C)C — net efflux ratio (substrate, bidirectional transwell permeability; MDCKII cells transfected with ABCG2; 1 µM, 1 h, pH 7.4; reference: without over with ABCG2 inhibitor): 2.14
O=C(c1ccccc1)N1CCN(c2cc(-c3ccccc3)nc3cc(-c4ccc(F)cc4)nn23)CC1 — IC50 (JC-1 dye efflux, inhibitor, flow cytometry; ABCG2-overexpressing cells; with: JC-1 1 µM): 2030 ± 110 nM
CCN1C(=O)N(c2c(F)c(OC)cc(OC)c2F)Cc2cnc3[nH]c(CN4CCOCC4)cc3c21 — saturating concentration (efflux, substrate): 30 µM
CC(O)c1cc(C(=O)N[C@@H](C)Cn2ccc(-c3ccc(C#N)c(Cl)c3)n2)[nH]n1 (stereo partly drawn) — efflux ratio (substrate; MDCK transfected): > 2
O=C(c1ccoc1)N1CCN(c2cc(-c3ccco3)nc3cc(-c4ccco4)nn23)CC1 — IC50 (JC-1 dye efflux, inhibitor, flow cytometry; ABCG2-overexpressing cells; with: JC-1 1 µM): 2350 nM
O=C(O)[C@H]1O[C@@H](Oc2c(-c3ccccc3)oc3cccc(O)c3c2=O)[C@H](O)[C@@H](O)[C@@H]1O — Km (glucuronide efflux, substrate; HeLa cells expressing UGT1A9): 12.8 ± 2.9 µM
O=C(c1ccoc1)N1CCN(c2cc(-c3ccoc3)nc3cc(-c4ccccc4)nn23)CC1 — IC50 (JC-1 dye efflux, inhibitor, flow cytometry; ABCG2-overexpressing cells; with: JC-1 1 µM): 1400 nM
O=c1cc(-c2ccccc2)c(=O)c2c1c1c(=O)c3ccccc3c1n2CCc1ccccc1 — inhibition (mitoxantrone efflux, inhibitor, flow cytometry; HEK293 transfected with ABCG2; 10 µM, 30 min, with: mitoxantrone 5 µM; reference: Ko143 1 µM): 128 ± 6%
COc1cccc(-c2cc3nc(-c4ccco4)cc(N4CCN(C(=O)c5ccoc5)CC4)n3n2)c1 — IC50 (JC-1 dye efflux, inhibitor, flow cytometry; ABCG2-overexpressing cells; with: JC-1 1 µM): 2260 nM
O=c1cc(-c2ccccc2)c(=O)c2c1c1c(=O)c3ccccc3c1n2Cc1ccccc1 — inhibition (mitoxantrone efflux, inhibitor, flow cytometry; HEK293 transfected with ABCG2; 10 µM, 30 min, with: mitoxantrone 5 µM; reference: Ko143 1 µM): 41%
